Published values collected from several papers.
Each line is one published result; not all experiments were run side by side. Values joined by “and” are separate records of one study, mostly repeats; a detail may differ. ± marks the error that the study gave.

C[C@H](NCc1ccc(-c2ccc(C(F)(F)F)cc2)cc1)C(N)=O — step-through latency (passive avoidance retention; APP/PS1 mice; oral, 1 mg/kg, 336 h, 2 weeks treatment): 254 ± 66.5 s
COc1ccccc1-c1n[nH]c2nc(N[C@H]3CC[C@H](NS(=O)(=O)CC(C)C)CC3)ncc12 — relative abundance (bead binding, competition bead pull-down, measured: LMJF.21.0280; Leishmania donovani extract; 10 µM; relative to: vehicle): 0.98
NC(=NN=Cc1cccs1)[S][Ru+]([Cl])([P](c1ccccc1)(c1ccccc1)c1ccccc1)[P](c1ccccc1)(c1ccccc1)c1ccccc1.[Cl-] — IC50 (DPPH scavenging, absorbance): 44 µM
N#CCc1ccc(O)cc1 — radical scavenging (DPPH radical; 300 µg/mL): 8.2 ± 1.2%
O=S(=O)(N[C@H]1CCO[C@@H](C2c3ccc(F)cc3CCc3cc(F)ccc32)C1)c1ccc(OC(F)(F)F)cc1 — metastasis area (H&E staining; D341-Luc, athymic nude mouse, intraventricular leptomeningeal disease model, spinal column; dose not given; relative to: vehicle): decreased
COc1ccccc1-c1n[nH]c2nc(NC3CCN(C(=O)Cc4ccc(F)cc4F)CC3)ncc12 — relative abundance (bead binding, competition bead pull-down, measured: LINJ.26.1220; Leishmania donovani extract; 10 µM; relative to: vehicle): 0.96
Cc1ccc(S(=O)(=O)N2CC2C(=O)N(C)C)cc1 (centres unmarked) — tumour volume (mouse, Lewis lung carcinoma; intraperitoneal, 170 mg/kg, 16 doses, day 15): 1100 mm3
NNC(=O)c1ccccc1 — normalised absorbance (hydrazine ligation kinetics, absorbance; concentration not given, 10 s, with: 2-formylphenylboronic acid): 0.377
O=[N+]([O-])[O-].O=c1c(C=NN=C([S-])Nc2ccccc2)coc2ccccc12.[Cu+2].c1cnc2c(c1)c1nccnc1c1cccnc12 — nicked circular DNA form (DNA cleavage; supercoiled pUC19 DNA; 100 µM, 4 h, 37 °C, no reducing agent, with: DNA 40 µM): 16%
O=C1NC2(CC2)COc2ncc(F)cc2[C@H]2COCCN2c2ccn3ncc1c3n2 — creatine kinase activity (Sprague-Dawley rat, female, serum; oral, 10 mg/kg/day, 4 weeks daily, end of treatment): 462 ± 123 U/L
CCCC[C@@H]1NC(=O)[C@H](Cc2ccc(O)cc2)NC(=O)[C@@H]2CCCN2C(=O)[C@H](CC(=O)O)NC(=O)[C@H](C)NC(=O)[C@H](Cc2ccccc2)NC(=O)[C@@H]2CSCCC(=O)N3CN(CN(C3)C(=O)CCSC[C@@H](C(=O)N[C@@H](C)C(N)=O)NC1=O)C(=O)CCSC[C@H](NC(C)=O)C(=O)N[C@@H](CC(C)(C)C)C(=O)N1CCC[C@H]1C(=O)N[C@@H](CCC(=O)O)C(=O)N[C@H](CCCCNC(=O)CCc1cn(CCOCCOCCOCCN(CCOCCOCCOCCC(=O)N[C@H]3CSCCC(=O)N4CN5CN(C4)C(=O)CCSC[C@H](NC(=O)[C@@H](CC(=O)O)NC(=O)[C@H](Cc4cccc6ccccc46)NC(=O)[C@@H]4CCCN4C3=O)C(=O)N[C@@H](CCSC)C(=O)N[C@@H](CCCCNC(=N)N)C(=O)N[C@@H](CC(=O)O)C(=O)N[C@@H](Cc3c[nH]c4ccccc34)C(=O)N[C@@H](CO)C(=O)N[C@@H]([C@@H](C)O)C(=O)N3CCC[C@H]3C(=O)N3C[C@H](O)C[C@H]3C(=O)N[C@@H](Cc3c[nH]c4ccccc34)C(=O)N[C@H](C(N)=O)CSCCC5=O)CCOCCOCCOCCn3cc(CCC(=O)NCCCC[C@H]4NC(=O)[C@H](CCC(=O)O)NC(=O)[C@@H]5CCCN5C(=O)[C@H](CC(C)(C)C)NC(=O)[C@@H](NC(C)=O)CSCCC(=O)N5CN6CN(C5)C(=O)CCSC[C@H](NC(=O)[C@H](Cc5ccc(O)cc5)NC(=O)[C@@H]5CCCN5C4=O)C(=O)N[C@@H](Cc4ccccc4)C(=O)N[C@@H](C)C(=O)N[C@@H](CC(=O)O)C(=O)N4CCC[C@H]4C(=O)N[C@@H](Cc4ccc(O)cc4)C(=O)N[C@@H](CCCC)C(=O)N[C@H](C(=O)N[C@@H](C)C(N)=O)CSCCC6=O)nn3)nn1)C(=O)N1CCC[C@H]1C(=O)N[C@@H](Cc1ccc(O)cc1)C(=O)N2 — mRNA level (NanoString, measured: Clec5a-mRNA; mouse bearing MC38-Nectin-4 tumour, circulating white blood cells; 5 mg/kg, 24 h after dosing, unit not given; relative to: vehicle): 2.54
CC(C)C[C@H](NC(=O)CNC(=O)[C@H](CCCCN)NC(=O)[C@@H](N)CC(C)C)C(=O)N[C@@H](C)C(=O)N[C@@H](C)C(=O)N[C@@H](CCCCN)C(=O)N[C@@H](CC(C)C)C(=O)N[C@@H](CC(C)C)C(=O)NCC(=O)N[C@@H](CC(C)C)C(=O)N[C@@H](CCCCN)C(=O)N[C@@H](CCCCN)C(=O)O — ABTS radical scavenging (absorbance at 734 nm; 1 mg/mL, 5 min, room temperature): 0.176 fraction (0-1)
C(=N\Cc1cc(C/N=C/c2ccc[nH]2)cc(-c2cc(C/N=C/c3ccc[nH]3)cc(C/N=C/c3ccc[nH]3)c2)c1)/c1ccc[nH]1 — IFN-gamma level (hACE2 mice, bronchoalveolar lavage fluid; dose not given; relative to: control): decreased
CN[C@@H]1C[C@H]2O[C@@](C)([C@@H]1OC)n1c3ccccc3c3c4c(c5c6ccccc6n2c5c31)C(=O)NC4 — late apoptotic or necrotic cells (annexin V flow cytometry; pancreatic islet cells, mouse; 1 µM, 24 h): 0%
CC(C)C[C@@H]1NC(=O)[C@@H](Cc2c[nH]c3ccccc23)NC(=O)[C@H](CCCNC(=N)N)NC(=O)[C@@H](CCC(=O)O)NC(=O)[C@H](CCC(N)=O)NC(=O)[C@@H](CCC(=O)O)NC(=O)[C@H](CCCNC(=N)N)NC(=O)[C@@H](Cc2c[nH]c3ccccc23)NC1=O — cytokine level (Luminex, measured: VEGF; LDLr-/- mice, Western diet, liver; dose not given, 4 weeks): 8.2 ± 3.4 pg/g tissue
CCc1nnc(-c2c(OC)cc(-c3cnc4cc(-c5cnn(C)c5)ccn34)cc2OC)o1 — mineral apposition rate (histomorphometry; male C57BL/6J mouse, tibia; oral gavage, 10 mg/kg once daily, 3 wk): 0.658 ± 0.039 µm/day
CO[C@H]1CC=C2CCN3CCC4=C(CC(=O)CC4)[C@]23C1 — ethanol intake (Wistar rats, intermittent ethanol access; subcutaneous, 6 mg/kg, 30 min after drinking onset): 1.2 ± 0.1 g/kg
CCN(Cc1ccccc1)C(=O)CCc1nc(CN2CCN(C(=O)Cc3ccc(OC)c(OC)c3)CC2)no1 — action potential threshold (current clamp; DRG neurons, naive rat; 1 µM): -5.78 ± 0.56 mV
CC(C)C[C@H](NC(=O)CN)C(=O)N[C@@H](CCCCN)C(=O)N[C@@H](CCCCN)C(=O)N[C@@H](CS)C(=O)NCC(=O)N[C@@H](CCCCN)C(=O)N[C@@H](CCCCN)C(=O)N[C@@H](CCCCN)C(=O)N[C@@H](CC(C)C)C(=O)N[C@@H](CCCCN)C(=O)N[C@@H](CCCCN)C(=O)N[C@@H](CS)C(=O)O — ABTS radical scavenging (absorbance at 734 nm; 1 mg/mL, 5 min, room temperature): 0.898 fraction (0-1)
O=C(O)c1ccc(-c2nc(-c3ccccc3Cl)c3sccn23)cc1 — platelet recovery (C57BL/6 mice, 5-fluorouracil treated; oral, 100 mg/kg daily, day 10): 275% and 330% and 262% and 331% and 241% and 336% and 314% and 260%

For quick reference, copied from above:
CCN(Cc1ccccc1)C(=O)CCc1nc(CN2CCN(C(=O)Cc3ccc(OC)c(OC)c3)CC2)no1 — action potential threshold (current clamp; DRG neurons, naive rat; 1 µM): -5.78 ± 0.56 mV
O=C(O)c1ccc(-c2nc(-c3ccccc3Cl)c3sccn23)cc1 — platelet recovery (C57BL/6 mice, 5-fluorouracil treated; oral, 100 mg/kg daily, day 10): 275% and 330% and 262% and 331% and 241% and 336% and 314% and 260%
CC(C)C[C@H](NC(=O)CN)C(=O)N[C@@H](CCCCN)C(=O)N[C@@H](CCCCN)C(=O)N[C@@H](CS)C(=O)NCC(=O)N[C@@H](CCCCN)C(=O)N[C@@H](CCCCN)C(=O)N[C@@H](CCCCN)C(=O)N[C@@H](CC(C)C)C(=O)N[C@@H](CCCCN)C(=O)N[C@@H](CCCCN)C(=O)N[C@@H](CS)C(=O)O — ABTS radical scavenging (absorbance at 734 nm; 1 mg/mL, 5 min, room temperature): 0.898 fraction (0-1)
